# Measurements pooled from the literature.
# “And” joins repeats or separate records; there may be more than shown. ± marks the error that the study gave.
Compound,assay,test system,setting,scale,endpoint,result
CC(C)(O)c1ncc([S@](N)(=O)=NC(=O)Nc2c3c(cc4c2CCC4)CCC3)s1,,healthy human,"oral, 100 mg single dose, capsule formulation",,total adverse events,100%
CO[C@@H](C[C@H]1C(C)=CC[C@@H]2[C@]3(C)C[C@H](O[C@@H]4O[C@@H](C)[C@H](O)[C@@H](O)[C@H]4O)[C@@H](O)C(C)(C)[C@H]3CC[C@]21C)[C@H](N)C(=O)O,,Caco-2,"5 µM, 1 h",,efflux ratio,1.2
CN1CCC[C@]1(C)/C=C/S(=O)(=O)NC(=O)Nc1c2c(cc3c1CCC3O)CCC2 (some centres unmarked),,"human, plasma","oral, 50 mg twice daily of parent drug, day 14, metabolite of dosed drug",,Cmax at first steady-state dose,38000 ng/mL
Cc1cccc(O[C@H]2CCC[C@@H](C(C)CNCc3ccncc3)C2)c1 (relative stereo),,C57BL/6 wild-type mouse pups,"50 mg/kg, one month",,body weight,1.8 g and 1.7 g and 1.5 g and 1.6 g
[123I]c1ccc2nc(-c3ccc(-n4ccnn4)nc3)cn2c1,,"male Wistar rat, spleen","intravenous, 4 MBq, 24 h",,tracer uptake,0.004 %ID/g
O=C(Nc1cccc(CNc2ncccn2)c1)c1cc(-c2ccccc2)n(-c2ccccc2)n1,,human liver microsomes,4 h,,depletion,< 15%
COc1cccc(OC)c1-c1cc(C(=O)NC2(C(=O)O)C3CC4CC(C3)CC2C4)nn1-c1ccc(C(=O)N(C)CCCN(C)CCCN(C)C(=O)[C@H](CCCCNC(=O)[C@H](CC(C)C)NC(=O)C2OC2C(=O)O)NC(=O)CN2CCN(CC(=O)[O-])CCN(CC(=O)[O-])CCN(CC(=O)[O-])CC2)cc1C(C)C.[177Lu+3] (mixture of isomers),,"mouse, HT-29 xenograft, spleen",4 h post injection,,tissue uptake,1.04 %ID/g
C#CCOCCOCCOCCOCCn1cc(C(ONC(=O)/C=C/C(C)=C/C2(C)Oc3cc(N(C)C)ccc3C2=O)(c2ccc(C)cc2)c2ccc(C)cc2)nn1 (centres unmarked),HPLC,"aqueous buffer, 20% acetonitrile","concentration not given, 193 min, pH 3",baseline: initial prodrug amount,release from prodrug hydrolysis,52.2%
O=C(Nc1cnccc1-c1ccc([18F])nc1)c1ccnc(NC(=O)C2CC2)c1,,"FVB/NJ mice, both sexes, liver","intravenous, 15 min, median, no P-gp inhibitor",,SUV,8.77
Cc1nn(-c2nc3c(F)cc(F)cc3s2)c(O)c1C(c1ccc(C(F)(F)F)cc1)c1c(C)nn(-c2nc3c(F)cc(F)cc3s2)c1O,,"ICR mouse, plasma","intravenous, 5 mg/kg",,AUC(0-t),36000 ng·h/mL and 46800 ng·h/mL and 87800 ng·h/mL
C=CC(=O)Nc1cc(Nc2nccc(-c3c[nH]c4ccccc34)n2)c(OC)cc1N(C)CCN(C)C,storage stability,human plasma,"72 h, on ice, LLOQ level",,recovery,71.1%
CN(O)C(=O)CCC(=O)NCCCN(CCCCN(CCCNC(=O)CCC(=O)N(C)O)C(=O)CCC(=O)N(C)O)C(=O)CCC(=O)N(C)O.[89Zr],radio-TLC,aqueous buffer,"3 d, pH 5, 37 °C, 89Zr-labelled complex, added: DTPA 100-fold excess",,intact complex,98 ± 0.4%
CNc1cc(N)c(C(N)=O)cn1,,"Han Wistar rats, male, plasma","oral, 30 mg/kg, 2.00 h",,concentration at time,13.6 µM
COCC1CN(C2CCN(c3cc(OC)c(Nc4ncc(Br)c(Nc5ccc6c(c5P(C)(C)=O)OCCO6)n4)cc3C)CC2)C1,,"EGFR-mutant NSCLC patients, plasma","oral, 90 mg multiple doses, geometric mean",,Cmax at steady state,1230 ng/mL
Cc1noc(C)c1Cn1cc(N2C(=O)CN(Cc3cccc(O[C@@H]4O[C@H](C(=O)O)[C@@H](O)[C@H](O)[C@H]4O)c3)C2=O)cn1,,"Sprague-Dawley rat, male","oral, 30 mg/kg of parent drug, 2 h",,plasma concentration,4750 ng/mL
C/C(N)=N/C(=N\S(=O)(=O)c1ccc(C(F)(F)F)cc1)N1C[C@H](c2ccccc2)C(c2ccc(Cl)cc2)=N1,,"male C57BL/6 mouse, lung","oral, 10 mg/kg",,AUC(0-inf),44500 ng·h/mL
COc1cnc2cccc(N3CCc4c(cc(Cn5ccnc5)cc4-c4cn(C)nc4C(F)(F)F)C3=O)c2c1,,"male CD-1 mouse, plasma","intraperitoneal, 50 mg/kg",,AUC(0-inf),77500 ng·h/mL
CNc1cc(C)c(C(N)=O)cn1,,"Han Wistar rats, male, plasma","oral, 30 mg/kg, 0.50 h",,concentration at time,88.3 µM
C=CC(=O)N1CCCC(n2c(=O)c3ncccc3n(Cc3ccc(Oc4ccccc4)cc3)c2=O)C1 (centres unmarked),metabolic stability,"male beagle dog, hepatocytes","1 µM, 90 min",,compound remaining,26.8%
CCCCN1C(=O)c2cccc3c(NCCCCCCN4CCOCC4)ccc(c23)C1=O,,acetonitrile,,,fluorescence quantum yield,0.92
CN1CCC[C@]1(C)/C=C/S(=O)(=O)NC(=O)Nc1c2c(cc3c1CC(O)C3)CCC2 (some centres unmarked),,"human, plasma","oral, 12.5 mg twice daily of parent drug, day 14, metabolite of dosed drug",,Cmax at second steady-state dose,1500 ng/mL
O=C(Nc1cnccc1-c1ccc([18F])cc1)c1ccnc(NC(=O)C2CC2)c1,,"mice, transgenic, GSK-3β, early-stage, skin","intravenous, dose not given, 120 min",,SUV,0.11
CN1CCCNC(=O)c2cccc(c2)C(=O)NCCCN(C)CCCNc2cccc3c2C(=O)c2cccc(c2C3=O)NCCC1,,mouse xenograft model,"dose not given, day 4, group mean",,body weight,26.4 g
CC(C)OCCOCc1ccc(OCC(O)CN(N=O)C(C)C)cc1 (centres unmarked),"duplex sequencing, item: mutation frequency","NMRI mouse, liver","oral, 4 weeks",,lowest dose significant mutation increase,98 mg/kg
O=C(O)CN1CCN(CC(=O)O)CCN(CC(O)CN(CC(O)CN2CCN(CC(=O)O)CCN(CC(=O)O)CCN(CC(=O)O)CC2)C[C@H](O)[C@@H](O)[C@H](O)[C@H](O)CO)CCN(CC(=O)O)CC1 (some centres unmarked),pH-potentiometry,0.15 M NaCl,25 °C,,log K ZnL,18
Cc1c(Cc2cccc(OC(C)(C)C(=O)O)c2)c2ccc(C(=O)NCc3cccc(C(C)(C)C)c3)cc2n1CC1CCC1,,mouse liver microsomes,"1 µM, added: microsomes 1 mg/mL",,half-life,40 min
Cc1cccc(-c2cccc(C)n2)n1.Cc1cccc(-c2cccc(C)n2)n1.F[P-](F)(F)(F)(F)F.F[P-](F)(F)(F)(F)F.[Ru+2].c1ccc2c(c1)Cc1cc(-c3nc4c5cccnc5c5ncccc5c4[nH]3)ccc1-2,,aerated acetonitrile,298 K,baseline: Ru(bpy)3(PF6)2,singlet oxygen quantum yield,0
C=CC(=O)Nc1cc(Nc2nccc(-c3cn(C)c4ccccc34)n2)c(OC)cc1N(C)CCNC,,human plasma,"24 h, storage stability, medium QC sample",,recovery,59.8%
CC1Cc2ccccc2N1C(=O)CN1CCN(Cc2ccccc2)CC1 (centres unmarked),,"female NMRI mice, brain","intraperitoneal, 10 mg/kg free base, 60 min",,brain concentration,590 ng/mL
COc1ccnc(C(=O)N[C@H]2COC(=O)[C@H](Cc3ccccc3)[C@@H](OC(=O)C(C)C)[C@H](C)OC2=O)c1O,soil adsorption,soil,"pH 6.9, organic carbon 0.8 %",,KFoc,27500 mL/g
Cc1nc(N)nc2c1C(=O)N[C@@H](c1ccc(F)cc1-c1cccc(O[11CH3])n1)C2,ex vivo biodistribution,"mice, U87 subcutaneous xenograft, heart","60 min post-injection, baseline, vehicle pre-treatment",,tracer uptake,0.9 ± 0.1 %ID
O=S(=O)(NCc1ccncc1)c1ccc(C2CCCCC2)cc1,,wild-type littermate mouse,0.3 mg/kg,baseline: vehicle,swim speed change,17 ± 3 cm/s
CN(C)S(=O)(=O)c1ccc(S(=O)(=O)N2CCC(n3c(=O)[nH]c4ccccc43)CC2)cc1,,mouse,"dose not given, day 1",baseline: day 0,relative body weight,96% and 94% and 97% and 92% and 95%
[O-]c1cccc(-c2cccc([O-])n2)n1.[Ru+2].c1ccc(-c2ccnc3c2ccc2c(-c4ccccc4)ccnc23)cc1.c1ccc(-c2ccnc3c2ccc2c(-c4ccccc4)ccnc23)cc1,,acetonitrile,basic deprotonated form,,singlet oxygen quantum yield,< 0.01
O=C([O-])CN1CCN(CC(=O)[O-])CCN(CC(CCCc2ccccc2[N+](=O)[O-])N(CC(=O)[O-])CC(=O)[O-])CC1.[177Lu+3] (centres unmarked),HPLC,human serum,"3 h, pH 7, 37 °C",,intact radiolabelled complex,100%
C=C(NC(=O)c1csc(-c2nc3c(cc2O)-c2nc(cs2)C(=O)NC(C(C)O)C(=O)NC(=C(C)OC)c2nc(cs2)C(=O)NC2c4nc(cs4)C(=O)NC(COC(=O)c4c5c6c(cccc6n4O)COC(=O)C(OC4CC(C)(O)C(N(C)C)C(C)O4)C2OC5)c2nc-3cs2)n1)C(N)=O (centres unmarked),,"Sprague-Dawley rat, male, plasma","intravenous infusion, 6 mg/kg, multiple doses, day 7",,Tmax,6 min
CC(C)C[C@H](NC(=O)[C@H](CCCN)NC(=O)CNC(=O)[C@@H](NC(=O)[C@H](C)NC(=O)[C@@H]1CSCSC[C@H](NC(=O)CC[C@H](N)C(=O)O)C(=O)N[C@@H](CC(N)=O)C(=O)N[C@@H]([C@@H](C)O)C(=O)N[C@@H](C)C(=O)N[C@@H]([C@@H](C)O)C(=O)N1)[C@@H](C)O)C(=O)N[C@@H](C)C(=O)N[C@@H](CCC(=O)O)C(=O)N[C@@](C)(Cc1ccccc1)C(=O)N[C@@H](CC(C)C)C(=O)N[C@H](C(=O)N[C@@H](CCCNC(=N)N)C(=O)N[C@@H](CO)C(=O)N[C@@H](CO)C(=O)N[C@@H](CC(N)=O)C(=O)N(C)[C@@H](CC(N)=O)C(=O)N[C@@H](Cc1ccccc1)C(=O)NCC(=O)N1CCC[C@H]1C(=O)N[C@@H](CCCCNC(=O)CC[C@H](NC(=O)CC[C@H](NC(=O)CCCCCCCCCCCCCCCCCCC(=O)O)C(=O)O)C(=O)O)C(=O)N[C@@H](CC(C)C)C(=O)N1CCC[C@H]1C(=O)N1CCC[C@H]1C(=O)N[C@H](C(=O)N[C@@H](CCC(=O)O)C(=O)N[C@H](C(=O)NCC(=O)N[C@@H](CO)C(=O)N[C@@H](CC(N)=O)C(=O)N[C@H](C(=O)N[C@@H](Cc1ccc(O)cc1)C(N)=O)[C@@H](C)O)C(C)C)[C@@H](C)O)C(C)C,,"healthy humans, plasma","subcutaneous, dose not given",,Cmax,110 ng/mL
CC(C)C[C@H](NC(=O)[C@H](CCCCN)NC(=O)C1CCC=CCCC(NC(=O)[C@H](CCCCN)NC(=O)[C@@H](N)CC(C)C)C(=O)N[C@@H](CCCCN)C(=O)NC2CCC=CCCC(NC(=O)[C@H](CCCCN)NC(=O)CNC(=O)[C@H]3CCCN3C(=O)[C@H](CCCCN)NC2=O)C(=O)N[C@@H](CCCCN)C(=O)N1)C(N)=O (some centres unmarked),RP-HPLC C18,,hydrophobicity,,retention time,14.3 min
Nc1nnc(NCc2c(Cl)cccc2Oc2ccccc2)[nH]1,,CD1 mice,"ip, 3 mg/kg daily, 1 weeks",baseline: normal mice,blood urea nitrogen,increased
Cc1cc(-c2ccc(C(=O)[C@@H]3CCCC[C@H]3C(=O)Nc3cnn4c3C(=O)NCC4)cc2)[nH]n1,,"human, urine","oral, 200 mg, 0-24 h",baseline: dose,cumulative radioactivity recovery,4.59% and 5.77% and 6.15% and 5.16% and 5.93%
CC(C)n1ncc2c(C(=O)NCCN(C)C)cc(C3CC3)nc21,metabolic stability,"mouse, liver microsomes",,,scaled CLint,258 mL/min/kg

# A few entries again:
Compound,assay,test system,setting,scale,endpoint,result
Cc1cccc(-c2cccc(C)n2)n1.Cc1cccc(-c2cccc(C)n2)n1.F[P-](F)(F)(F)(F)F.F[P-](F)(F)(F)(F)F.[Ru+2].c1ccc2c(c1)Cc1cc(-c3nc4c5cccnc5c5ncccc5c4[nH]3)ccc1-2,,aerated acetonitrile,298 K,baseline: Ru(bpy)3(PF6)2,singlet oxygen quantum yield,0
C=CC(=O)Nc1cc(Nc2nccc(-c3cn(C)c4ccccc34)n2)c(OC)cc1N(C)CCNC,,human plasma,"24 h, storage stability, medium QC sample",,recovery,59.8%
CC1Cc2ccccc2N1C(=O)CN1CCN(Cc2ccccc2)CC1 (centres unmarked),,"female NMRI mice, brain","intraperitoneal, 10 mg/kg free base, 60 min",,brain concentration,590 ng/mL
COc1ccnc(C(=O)N[C@H]2COC(=O)[C@H](Cc3ccccc3)[C@@H](OC(=O)C(C)C)[C@H](C)OC2=O)c1O,soil adsorption,soil,"pH 6.9, organic carbon 0.8 %",,KFoc,27500 mL/g
Cc1nc(N)nc2c1C(=O)N[C@@H](c1ccc(F)cc1-c1cccc(O[11CH3])n1)C2,ex vivo biodistribution,"mice, U87 subcutaneous xenograft, heart","60 min post-injection, baseline, vehicle pre-treatment",,tracer uptake,0.9 ± 0.1 %ID
